Assay results collected from several papers.
Protocols differ between the studies behind these lines. ± gives the spread as reported.

With `CCCC(CCC)C(=O)[O][Pt]([NH2])([NH2])([Cl])([Cl])[O]C(=O)c1ccccc1OC(C)=O` the IC50 was 1.69 ± 0.12 µM (LoVo oxaliplatin-resistant; cytotoxicity, MTT; 72 h).
`CCCCC(=O)Nc1ccc(-c2ccc3ncn(CCC)c(=O)c3c2)cn1` gave an IC50 of 0.047 ± 0.006 µM (HCC827, scrambled shRNA control; cell viability, CCK-8; 72 h).
`CCCCCCCCCCCC(=O)Oc1c(C)c(OC)c2c(/C=C/c3ccccc3)c(CCCCCCCCCC)c(=O)oc2c1C` gave an IC50 of > 50 µM (KKU-M213; cell growth or viability, SRB; 72 h).
`CC(C)c1ccc(N(C)c2ccc3c(c2)OCC[C@H]3CNc2cnccc2C(=O)O)cc1` gave an IC50 of ≥ 10 µM (RPMI-7951; cell growth or viability, ATP luminescence; 7 days).
`CC(C)C(=O)Cc1c(OCC(O)C(C)(C)O)ccc2ccc(=O)oc12` (stereo not drawn) gave an IC50 of 72 µM (COLO 320 multidrug resistant; cell growth, MTT; 72 h).
`CC(=O)[O][Pt]([NH2])([NH2])([Cl])([Cl])[O]C(=O)CCC(C)C1CCC2C3CCC4CC(O)CCC4(C)C3CCC12C` (stereo not drawn) gave an IC50 of 3.9 µM (LNCaP; cell growth or viability, MTT; 72 h).
The IC50 of `CNS(=O)(=O)Nc1nccc(Cc2c(C)c3ccc(Oc4ncccc4F)cc3oc2=O)c1F` is reported as > 1 µM (NCI-H1395; cell viability, CellTiter-Glo; 7 days).
With `CCOc1cncc(-c2ccc(NC(=O)C3(c4ccnc(NS(=O)(=O)C5CC5)n4)CCOCC3)nc2)n1` the IC50 was 10 µM (SNB-75; cell growth or viability, ATP luminescence; 72 h).
`CCCCCCCCCC(=O)Oc1c(C)c(OC)c2c(c1C)OC(=O)C(CCCCCCCC)C2(O)C=Cc1ccccc1` (stereo not drawn) has an IC50 of > 50 µM (KKU-M213; cell growth or viability, SRB; 72 h).
`O=C(CN1CCN(C(=O)c2ccc(F)cc2)CC1)Nc1cccc(C(=O)Nc2ccc3[nH]ncc3c2)c1` gave an IC50 of > 50 µM (KM12-Luc (TPM3-NTRK1); cell growth, CellTiter-Glo; 72 h).
With `O=C(O)C(Cc1c[nH]cn1)N1C(=O)c2ccc3c4ccc5c6c(ccc(c7ccc(c2c37)C1=O)c64)C(=O)N(CCN1CCCCC1)C5=O` (stereo not drawn) the IC50 was 95.7 µM (LNCaP; cell growth or viability, SRB; 72 h).
The IC50 of `COc1cc(C(=O)N/N=C/c2cccc3ccccc23)cc(OC)c1OC` is reported as 0.0423 µM (SIL-ALL; cell viability, MTT; 48 h).
`Cc1cc(C(=O)Nc2ccc3[nH]ncc3c2)ccc1NC(=O)Nc1cc(C(F)(F)F)ccc1F` gave an IC50 of > 50 µM (KM12-Luc (TPM3-NTRK1); cell growth, CellTiter-Glo; 72 h).
`COC1CN([C@H]2CC[C@H]([C@@]3(C)Oc4c(Cl)cc(C(=O)NCc5c(SC)cc(C)[nH]c5=O)c(C)c4O3)CC2)C1` — result for “log2 fold change”: 5.52 (RNA-seq, measured: PCDH17; human, whole blood; dose not given, 24 h; relative to: pretreatment baseline).
`[BH3-][P@+]1(c2ccccc2)CC[C@H](O)CC1` has an IC50 of > 100 µM (SW480; cell growth or viability, MTT; 72 h).
With `CN1CCC(N[C@H]2CCc3[nH]c4c(C(N)=O)ccc(-c5ccccc5Cl)c4c3C2)CC1` the IC50 was 2.46 µM (BXPC-3; cell growth or viability).
The IC50 of `CCNC(=S)NN=Cc1c2ccccc2cc2ccccc12.Cc1ccc(C(C)C)cc1.[Cl-].[Cl-].[Ru+2]` is reported as 298 ± 9 µM (CCD-18Co; cytotoxicity, MTS; 24 h).
For `O=[P@]1(c2ccccc2)CC[C@@H](O)CC1`, the IC50 was > 100 µM (SW480; cell growth or viability, MTT; 72 h).
With `CO[C@@H]1[C@@H](OC(=O)c2ccc(C)[nH]2)[C@@H](O)[C@H](Oc2ccc3c(O)c(NC(=O)c4c[nH]c(C(=O)Nc5c(O)c6ccc(O[C@@H]7OC(C)(C)[C@H](OC)[C@@H](OC(=O)c8ccc(C)[nH]8)[C@H]7O)c(C)c6oc5=O)c4C)c(=O)oc3c2C)OC1(C)C` the IC50 was 1 to 4 µM (K-Ras-driven tumour cell lines; viability).
For `CC[C@@H](C)N1C(=O)C2=Nc3ccccc3CN2C1=S`, IC50 read “inactive” (CEM/ADR5000 (P-gp overexpressing, multidrug-resistant); cell viability, resazurin; 72 h).
`Cn1ncc(-c2ccc3c(=O)[nH]nc(CN)c3c2)c1-c1c(F)c(Cl)cc(OC2CC2)c1C#N` has an IC50 of 0.05 µM (KP-4; cell viability, inhibitor, CellTiter-Glo; 120 h, baseline-subtracted).
For `CC(=O)Oc1ccccc1C(=O)[O][Pt]([NH2])([NH2])([Cl])([Cl])[O]C(=O)CCCc1ccccc1`, the IC50 was 0.09 ± 0.23 µM (LoVo oxaliplatin-resistant; cytotoxicity, MTT; 72 h).
The IC50 of `C=CC(=O)N1CCCC(n2c(=O)c3ncccc3n(Cc3ccc(Oc4ccccc4)cc3)c2=O)C1` (stereo not drawn) is reported as 5 µM (OCI-Ly7; cell growth or viability, MTT; 72 h).
`CCCCCCCCCCCC(=O)Oc1c(C)c(OC)c2c(c1C)OC(=O)[C@@H](CCCCCCCCCC)[C@]2(O)/C=C/c1ccccc1` (relative stereo) gave an IC50 of > 50 µM (KKU-M213; cell growth or viability, SRB; 72 h).
`Oc1cccc2c1[nH]c1c(C3=CC4(O)CCC=CCCCCN5CCC3C3(CC6C=CCCCCN6C43)C5)nccc12` (single isomer, unassigned; (+)) gave an IC50 of 0.47 µg/mL (SK-MEL; cell growth or viability, neutral red; 48 h).
`C=CCOc1c(C)c(OC)c(C(=O)/C=C/c2ccccc2)c(OCC=C)c1C` gave an IC50 of > 50 µM (SH-SY5Y; cell growth or viability, SRB; 72 h).
`COc1cc(NC(=O)Nc2cc(C(F)(F)F)ccc2F)ccc1C(=O)Nc1ccc2[nH]ncc2c1` gave an IC50 of > 50 µM (KM12-Luc (TPM3-NTRK1); cell growth, CellTiter-Glo; 72 h).

A few entries again:
The IC50 of `CCNC(=S)NN=Cc1c2ccccc2cc2ccccc12.Cc1ccc(C(C)C)cc1.[Cl-].[Cl-].[Ru+2]` is reported as 298 ± 9 µM (CCD-18Co; cytotoxicity, MTS; 24 h).
`COc1cc(NC(=O)Nc2cc(C(F)(F)F)ccc2F)ccc1C(=O)Nc1ccc2[nH]ncc2c1` gave an IC50 of > 50 µM (KM12-Luc (TPM3-NTRK1); cell growth, CellTiter-Glo; 72 h).
`CC(=O)[O][Pt]([NH2])([NH2])([Cl])([Cl])[O]C(=O)CCC(C)C1CCC2C3CCC4CC(O)CCC4(C)C3CCC12C` (stereo not drawn) gave an IC50 of 3.9 µM (LNCaP; cell growth or viability, MTT; 72 h).
The IC50 of `COc1cc(C(=O)N/N=C/c2cccc3ccccc23)cc(OC)c1OC` is reported as 0.0423 µM (SIL-ALL; cell viability, MTT; 48 h).
